# Experimental data gathered from unrelated publications.
# A part holds a random share of what one study measured. Positions count from the first letter of the parent shown.

# Series 1 — technique: aptamer microarray, sandwich; molecule type: DNA with 2'F-ANA; medium: in vitro; tested at: 200 nM; added: Cy3 exosite-II aptamer, 400 nM; reading: higher = stronger binding; oligonucleotide: GGTTGGTGTGGTTGG
# Target: Prothrombin, mature alpha-thrombin (F2, Homo sapiens, UniProt P00734)
# Notes: whole 15-mer aptamer, many near background
Modification,mean fluorescence intensity [a.u.]
2'F-ANA at 2 4 5 6 7 9 13,51.2
2'F-ANA at 3 6 7 8 11 12 15,1080
2'F-ANA at 2 4 5 7 9 10 12 14 15,45.1
2'F-ANA at 2 4 5 7 10 11 14 15,53
2'F-ANA at 1 4 5 6 7 9 11 12 14,132
2'F-ANA at 1 2 3 4 6 10 13,50.4
2'F-ANA at 3 4 6 7 8 10 11 13 15,212
2'F-ANA at 1 2 3 5 9 10 12 13 15,52.2

# Series 2 — target: CEP164, C-terminal peptide (human); technique: DHFR complementation, deep sequencing; medium: yeast; relative to: wild type; reading: higher = weaker binding
# Notes: single substitutions, model-inferred values
# Starting sequence: PDZK1, PDZ domain 2 (human); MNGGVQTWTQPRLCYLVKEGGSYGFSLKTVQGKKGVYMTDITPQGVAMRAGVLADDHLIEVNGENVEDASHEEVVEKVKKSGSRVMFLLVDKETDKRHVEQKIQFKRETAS; partner HNRVKVYRF
Variant,binding free energy change
V78H,1.79 kcal/mol
S81R,0.749 kcal/mol
V78W,2.22 kcal/mol
E100A,-0.172 kcal/mol
K106M,-0.129 kcal/mol
L27F,0.821 kcal/mol
P43S,0.272 kcal/mol
G63W,0.0959 kcal/mol

# Other studies, line by line — tested at: 10 µM
SMILES,target or system,test,setting,how to read,endpoint,result
CN(C/C=C/c1ccccc1)Cc1cccc2ccccc12,mouse MPNST tumor cells,"high-content immunofluorescence imaging, measured: nuclear SOX9","12 h, mean of 2 replicates","relative to: DMSO control, higher = more nuclear SOX9",nuclear SOX9 intensity,128 % of DMSO
CC[C@H](C)C(=O)O[C@H]1C[C@H](O)C=C2C=C[C@H](C)[C@H](CC[C@@H](O)C[C@@H](O)CC(=O)O)[C@H]21,Sarcocystis neurona,parasite growth,96 h,,inhibition,-4.8%

# Some of these lines once more (series 2):
Variant,binding free energy change
K106M,-0.129 kcal/mol
L27F,0.821 kcal/mol
